# Assay results from different studies.
# Compare with care: the assays were run in different laboratories.
# CDK15: Cyclin-dependent kinase 15 (CDK15, Homo sapiens, UniProt Q96Q40)
Structure (SMILES),target,test,test system,setting,how to read,endpoint,value
COc1cc(Nc2nc(C)cc(-c3cnn4nc(OC)ccc34)n2)cc(C(F)(F)F)c1,CDK15,KINOMEscan,,"1 µM, PFTAIRE2",reference: DMSO,remaining binding,90%
CNC1C[S+]2CC[S+]3CC[S+](C1)[Ru-4]321([N]=C=S)[n]2c3ccc(OC)cc3c3c4c(c5cc(F)c[n+]1c5c32)C(=O)NC4=O (stereo not shown),CDK15,KinomeScan,,0.1 µM,reference: untreated,remaining binding,89%
COc1cc(Nc2nccc(-c3cnn4nc(OC)ccc34)n2)cc(C(F)(F)F)c1,CDK15,"binding, competition with immobilised ligand",,1 µM,,remaining binding,90%
C=CC(=O)N1CCc2ccc(-n3c(=O)ccc4cnc5ccc(-c6cnn(C)c6)cc5c43)cc21,CDK15,KINOMEscan,,1 µM,reference: DMSO control,remaining binding,100%
CCn1cc(C(=O)O)c(=O)c2c(N)c(F)c(NC3CCCCC3)cc21,"Cyclin-dependent kinase 15, with cyclin B1 (CDK15, Homo sapiens, UniProt Q96Q40)",kinase activity,,"0.1 µM, with: ATP at Km",,inhibition,52.7%
C=CC(=O)N1CCCC(n2c(=O)c3ncccc3n(Cc3ccc(Oc4ccccc4)cc3)c2=O)C1 (stereo not shown),CDK15,"cell-free assay, competition with immobilised ligand",,1 µM,,remaining binding,92%
CC(C)=CC1OC(C)(C)C2C=C3C(=O)C(Cl)=CC(O)C3C3C(O)C4OC4C(=O)C132 (stereo not shown),CDK15,"cell-free assay, competition with immobilised ligand",,10 µM,,remaining binding,98%
Cc1cnc2nc1Nc1cccc(c1)COC/C=C/COCc1cc(ccc1OCCN1CCOCC1)N2,CDK15,"binding, competition with immobilised ligand",,0.1 µM,,remaining binding,100%
CCN1CCN(Cc2ccc(C(=O)Nc3ccc(C)c(NCc4cnc5[nH]ccc5c4OC)c3)cc2C(F)(F)F)CC1,CDK15,"binding, competition with immobilised ligand",,1 µM,,remaining binding,43%
COc1c(Cl)cccc1Nc1c(-c2ccncc2C#C[C@@]2(C)CCCN2C(=O)/C=C/CN(C)C)[nH]c2c1C(=O)NCC2,CDK15,"binding, competition with immobilised ligand",,3 µM,,remaining binding,97%
Nc1ncc2c(n1)-c1c([nH]c3ccc(C4=CCOCC4)cc13)CCC2,CDK15,"binding, competition with immobilised ligand",,1 µM,,remaining binding,98%
CNC(=O)C1CCN(c2cc(C)c(F)cc2NC(=O)c2ccc(-c3cc(O)ccc3C)c(C)c2)CC1,CDK15,"binding, competition with immobilised ligand",,1 µM,,remaining binding,100%
CS(=O)(=O)Nc1cccc(-c2csc3cnc(Nc4ccc(N5CCN(CCCCCOc6cccc7c6C(=O)N(C6CCC(=O)NC6=O)C7=O)CC5)cc4)nc23)c1 (stereo not shown),CDK15,"probe labelling, inhibitor, KiNativ chemoproteomics",MOLT-4,1 µM,,inhibition,19.8%
